{"data": "Measurements of several laboratories", "7-alpha-hydroxycholest-4-en-3-one 12-alpha-hydroxylase": "7-alpha-hydroxycholest-4-en-3-one 12-alpha-hydroxylase (Homo sapiens, UniProt Q9UNU6)", "ALDH2": "Aldehyde dehydrogenase, mitochondrial (ALDH2, Homo sapiens, UniProt P05091)", "note": "Several values in a cell are separate wells, animals, samples, runs or records. ± marks the error that the study gave.", "sequence of UniProt P05091 (whole entry, looked up)": "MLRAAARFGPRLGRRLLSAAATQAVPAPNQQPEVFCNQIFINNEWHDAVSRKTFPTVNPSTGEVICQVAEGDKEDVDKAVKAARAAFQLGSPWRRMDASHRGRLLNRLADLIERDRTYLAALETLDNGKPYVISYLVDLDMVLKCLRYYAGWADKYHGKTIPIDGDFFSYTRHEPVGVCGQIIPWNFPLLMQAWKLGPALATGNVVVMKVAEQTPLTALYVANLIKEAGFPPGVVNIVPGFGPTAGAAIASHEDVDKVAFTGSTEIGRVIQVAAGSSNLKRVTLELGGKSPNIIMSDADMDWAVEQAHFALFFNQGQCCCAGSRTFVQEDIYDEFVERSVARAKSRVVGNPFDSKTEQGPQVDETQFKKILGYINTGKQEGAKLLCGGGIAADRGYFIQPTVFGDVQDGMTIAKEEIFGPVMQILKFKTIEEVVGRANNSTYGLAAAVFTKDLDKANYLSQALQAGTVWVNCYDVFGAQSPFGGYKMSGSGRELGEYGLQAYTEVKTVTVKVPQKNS", "sequence of UniProt Q9UNU6 (whole entry, looked up)": "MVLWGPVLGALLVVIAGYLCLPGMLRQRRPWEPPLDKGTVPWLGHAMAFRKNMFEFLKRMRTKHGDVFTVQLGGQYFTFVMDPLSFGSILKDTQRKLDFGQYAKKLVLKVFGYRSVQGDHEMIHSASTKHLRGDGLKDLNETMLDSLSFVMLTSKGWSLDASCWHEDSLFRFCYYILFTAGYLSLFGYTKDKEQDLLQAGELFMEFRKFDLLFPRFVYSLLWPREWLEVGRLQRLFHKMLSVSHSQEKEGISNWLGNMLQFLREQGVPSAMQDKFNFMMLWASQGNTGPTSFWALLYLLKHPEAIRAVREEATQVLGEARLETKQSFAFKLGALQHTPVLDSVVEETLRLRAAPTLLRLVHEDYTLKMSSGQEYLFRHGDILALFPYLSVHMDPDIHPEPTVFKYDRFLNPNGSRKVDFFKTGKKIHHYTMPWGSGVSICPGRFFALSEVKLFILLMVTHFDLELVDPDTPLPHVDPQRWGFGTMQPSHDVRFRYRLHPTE", "sequence of UniProt P31641 (whole entry, unmodified, looked up)": "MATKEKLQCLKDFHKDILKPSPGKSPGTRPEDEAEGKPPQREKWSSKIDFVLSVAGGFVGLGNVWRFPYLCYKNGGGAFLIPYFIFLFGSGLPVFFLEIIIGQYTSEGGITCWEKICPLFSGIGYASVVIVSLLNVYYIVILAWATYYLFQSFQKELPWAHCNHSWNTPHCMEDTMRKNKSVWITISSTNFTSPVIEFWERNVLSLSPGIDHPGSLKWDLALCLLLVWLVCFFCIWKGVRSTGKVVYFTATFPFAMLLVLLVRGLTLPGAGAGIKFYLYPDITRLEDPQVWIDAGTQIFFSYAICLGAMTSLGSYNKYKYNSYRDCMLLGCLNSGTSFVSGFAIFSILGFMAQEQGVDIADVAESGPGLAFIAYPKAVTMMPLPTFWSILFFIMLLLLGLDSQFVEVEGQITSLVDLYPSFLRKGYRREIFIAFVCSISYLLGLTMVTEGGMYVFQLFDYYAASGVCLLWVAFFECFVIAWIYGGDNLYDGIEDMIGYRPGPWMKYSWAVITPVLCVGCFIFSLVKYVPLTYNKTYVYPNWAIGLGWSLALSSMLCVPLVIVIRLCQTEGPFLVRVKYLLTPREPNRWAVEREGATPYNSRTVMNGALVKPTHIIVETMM", "sequence of UniProt A0A0H2URD6 (whole entry, looked up)": "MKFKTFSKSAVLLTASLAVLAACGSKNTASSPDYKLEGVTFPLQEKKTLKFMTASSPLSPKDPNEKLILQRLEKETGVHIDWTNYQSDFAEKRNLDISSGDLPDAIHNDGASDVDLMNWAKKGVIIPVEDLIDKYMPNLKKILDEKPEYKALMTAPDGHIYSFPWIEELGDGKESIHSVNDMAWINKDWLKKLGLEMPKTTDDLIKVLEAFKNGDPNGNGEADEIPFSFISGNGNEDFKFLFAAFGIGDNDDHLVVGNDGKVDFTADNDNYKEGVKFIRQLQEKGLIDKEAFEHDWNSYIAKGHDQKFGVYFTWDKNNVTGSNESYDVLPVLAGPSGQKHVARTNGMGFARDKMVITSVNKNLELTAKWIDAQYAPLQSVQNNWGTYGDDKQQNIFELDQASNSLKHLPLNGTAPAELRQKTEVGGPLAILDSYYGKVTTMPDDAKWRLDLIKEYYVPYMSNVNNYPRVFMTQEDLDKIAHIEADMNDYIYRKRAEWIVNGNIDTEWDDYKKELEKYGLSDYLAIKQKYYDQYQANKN", "sequence of UniProt P35226 (whole entry, looked up)": "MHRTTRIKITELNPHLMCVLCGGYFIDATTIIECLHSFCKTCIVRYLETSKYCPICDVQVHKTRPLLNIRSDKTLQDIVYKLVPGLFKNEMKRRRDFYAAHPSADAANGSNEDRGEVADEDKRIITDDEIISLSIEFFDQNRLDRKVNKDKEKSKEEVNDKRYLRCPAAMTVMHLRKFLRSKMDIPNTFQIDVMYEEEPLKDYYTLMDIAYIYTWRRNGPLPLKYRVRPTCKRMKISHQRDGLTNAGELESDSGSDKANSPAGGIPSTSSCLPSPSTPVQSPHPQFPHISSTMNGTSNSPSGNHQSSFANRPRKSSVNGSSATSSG", "sequence of UniProt P98095 (whole entry, looked up)": "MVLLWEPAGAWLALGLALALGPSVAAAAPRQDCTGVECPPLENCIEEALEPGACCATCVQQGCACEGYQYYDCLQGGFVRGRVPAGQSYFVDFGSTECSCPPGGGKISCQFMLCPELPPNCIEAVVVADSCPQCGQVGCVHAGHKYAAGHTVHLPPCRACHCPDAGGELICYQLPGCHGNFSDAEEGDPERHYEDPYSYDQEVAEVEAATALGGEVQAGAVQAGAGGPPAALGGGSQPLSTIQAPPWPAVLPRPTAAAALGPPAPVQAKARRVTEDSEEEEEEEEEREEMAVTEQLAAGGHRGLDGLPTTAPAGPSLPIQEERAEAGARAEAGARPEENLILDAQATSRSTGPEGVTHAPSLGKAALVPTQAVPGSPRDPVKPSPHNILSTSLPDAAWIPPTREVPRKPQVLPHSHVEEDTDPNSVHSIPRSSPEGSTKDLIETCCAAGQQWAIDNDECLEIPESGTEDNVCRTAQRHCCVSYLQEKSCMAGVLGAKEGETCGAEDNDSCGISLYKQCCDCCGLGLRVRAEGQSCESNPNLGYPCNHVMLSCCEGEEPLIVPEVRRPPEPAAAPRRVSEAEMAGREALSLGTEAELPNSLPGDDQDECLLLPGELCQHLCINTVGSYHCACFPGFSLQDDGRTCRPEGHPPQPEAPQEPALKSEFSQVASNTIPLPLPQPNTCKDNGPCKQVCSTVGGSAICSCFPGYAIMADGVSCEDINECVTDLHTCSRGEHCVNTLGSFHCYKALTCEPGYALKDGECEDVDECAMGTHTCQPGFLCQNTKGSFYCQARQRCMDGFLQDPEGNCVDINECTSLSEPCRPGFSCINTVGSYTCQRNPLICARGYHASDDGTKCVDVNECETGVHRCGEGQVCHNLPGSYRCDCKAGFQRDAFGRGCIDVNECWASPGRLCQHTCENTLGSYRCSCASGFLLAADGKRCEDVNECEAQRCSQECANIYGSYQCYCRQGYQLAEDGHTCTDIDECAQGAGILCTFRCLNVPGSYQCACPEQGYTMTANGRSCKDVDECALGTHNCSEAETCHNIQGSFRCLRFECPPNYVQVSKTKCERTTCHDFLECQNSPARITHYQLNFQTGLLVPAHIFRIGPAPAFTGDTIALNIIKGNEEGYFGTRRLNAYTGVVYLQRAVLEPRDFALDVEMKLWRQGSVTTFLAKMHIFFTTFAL", "sequence of UniProt Q4WW81 (whole entry, looked up)": "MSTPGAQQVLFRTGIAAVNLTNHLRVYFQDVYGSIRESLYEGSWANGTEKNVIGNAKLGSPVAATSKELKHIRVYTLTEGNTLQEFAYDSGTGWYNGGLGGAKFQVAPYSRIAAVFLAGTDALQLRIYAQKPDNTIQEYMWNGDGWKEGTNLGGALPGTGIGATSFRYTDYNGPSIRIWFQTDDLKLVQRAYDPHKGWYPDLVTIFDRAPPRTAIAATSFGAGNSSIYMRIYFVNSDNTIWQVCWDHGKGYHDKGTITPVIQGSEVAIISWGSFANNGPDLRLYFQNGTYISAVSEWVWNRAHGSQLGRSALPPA", "sequence of UniProt P61823 (whole entry, looked up)": "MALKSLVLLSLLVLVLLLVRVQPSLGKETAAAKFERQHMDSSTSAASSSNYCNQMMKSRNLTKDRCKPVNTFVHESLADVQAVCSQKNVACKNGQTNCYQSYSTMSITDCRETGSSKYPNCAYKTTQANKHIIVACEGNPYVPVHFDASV", "sequence of UniProt Q16698 (whole entry, looked up)": "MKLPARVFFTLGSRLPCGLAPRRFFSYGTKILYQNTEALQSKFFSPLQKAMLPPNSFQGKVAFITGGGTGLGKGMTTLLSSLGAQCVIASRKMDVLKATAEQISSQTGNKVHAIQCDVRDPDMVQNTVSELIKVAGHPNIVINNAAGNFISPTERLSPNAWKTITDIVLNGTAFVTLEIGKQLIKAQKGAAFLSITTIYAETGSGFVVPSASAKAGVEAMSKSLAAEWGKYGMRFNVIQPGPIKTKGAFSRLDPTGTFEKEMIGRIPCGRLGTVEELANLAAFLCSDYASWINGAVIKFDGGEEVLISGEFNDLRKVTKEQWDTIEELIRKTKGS", "sequence of UniProt Q16774 (whole entry, looked up)": "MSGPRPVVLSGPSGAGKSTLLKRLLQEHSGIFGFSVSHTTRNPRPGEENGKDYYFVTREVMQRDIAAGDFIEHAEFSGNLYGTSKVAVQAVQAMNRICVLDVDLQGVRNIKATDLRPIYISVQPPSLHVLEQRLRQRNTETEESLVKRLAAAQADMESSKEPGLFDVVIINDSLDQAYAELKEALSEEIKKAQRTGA", "sequence of UniProt P02754 (whole entry, looked up)": "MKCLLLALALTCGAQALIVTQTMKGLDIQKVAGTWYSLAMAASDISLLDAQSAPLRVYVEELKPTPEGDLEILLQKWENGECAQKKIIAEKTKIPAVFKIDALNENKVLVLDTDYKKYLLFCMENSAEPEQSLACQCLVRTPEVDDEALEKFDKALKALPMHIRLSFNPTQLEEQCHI"}
{"SMILES": "Cn1cncc1[C@@](N)(c1ccc(Cl)cc1)c1ccc2c(c1)c(-c1cccc(Cl)c1)cc(=O)n2C", "target": "7-alpha-hydroxycholest-4-en-3-one 12-alpha-hydroxylase", "assay": "binding", "conditions": "20 min, pH 7.4", "Kd": "9.75 µM"}
{"SMILES": "CCCC(CCC)C(=O)O", "target": "ALDH2", "assay": "inhibitor, competition pulldown", "system": "SW620 and MV4-11 lysate", "conditions": "1 h", "Kd": "> 3020 µM"}
{"SMILES": "Clc1ccccc1C(c1ccccc1)(c1ccccc1)n1ccnc1", "target": "7-alpha-hydroxycholest-4-en-3-one 12-alpha-hydroxylase", "assay": "binding, Soret peak shift titration", "conditions": "20% glycerol", "Kd": "1.64 µM"}
{"SMILES": "C[C@H](O)C(=O)O", "target": "V20H-R359H zinc sensor protein", "assay": "binding, fluorescence lifetime", "conditions": "added: 100 µM Zn2+", "Kd": "553 ± 310 µM"}
{"SMILES": "Nc1[nH]ncc1-c1ccccc1", "target": "7-alpha-hydroxycholest-4-en-3-one 12-alpha-hydroxylase", "assay": "binding", "conditions": "20 min, pH 7.4", "Kd": "191 µM"}
{"SMILES": "CC1=C[C@H](O)CC(C)(C)[C@H]1/C=C/C(C)=C/C=C/C(C)=C/C=C/C=C(C)/C=C/C=C(C)/C=C/C1=C(C)C[C@@H](O)CC1(C)C", "target": "Beta-lactoglobulin (LGB, Bos taurus, UniProt P02754)", "assay": "binding, fluorescence quenching", "system": "PBS", "conditions": "30 min, 303 K", "Kd": "3.33 µM"}
{"SMILES": "NCCS(=O)(=O)O", "target": "SLC6A6 (Homo sapiens, UniProt P31641, E406A)", "assay": "microscale thermophoresis", "conditions": "E406A mutant", "Kd": "25.8 ± 6.33 µM"}
{"SMILES": "CO[C@@H]1O[C@@H](C)[C@@H](O)[C@@H](O)[C@@H]1O", "target": "fleA (Aspergillus fumigatus, UniProt Q4WW81)", "assay": "isothermal titration calorimetry", "Kd": "40.3 µM"}
{"SMILES": "NCCS(=O)(=O)O", "target": "uncharacterized protein (Pelagibacter ubique, UniProt Q4FMG4)", "assay": "isothermal titration calorimetry", "system": "Candidatus Pelagibacter ubique", "conditions": "one-set-of-sites model", "Kd": "0.062 ± 0.012 µM"}
{"SMILES": "Clc1ccc(COC(Cn2ccnc2)c2ccc(Cl)cc2Cl)cc1 (stereo not drawn)", "target": "7-alpha-hydroxycholest-4-en-3-one 12-alpha-hydroxylase", "assay": "binding, Soret peak shift titration", "conditions": "20% glycerol", "Kd": "0.0574 µM"}
{"SMILES": "CCC(=O)N1CCC(C(=O)N(C)CC(=O)N2CCN(c3nc(-c4cnc(N)nc4C(F)F)nc(N4CCOCC4)n3)CC2)CC1", "target": "PIK3CA (Homo sapiens, UniProt P42336)", "Kd": "0.00037 ± 0.00013 µM"}
{"SMILES": "NCCCC(=O)O", "target": "SLC6A6 (Homo sapiens, UniProt P31641, L306A)", "assay": "microscale thermophoresis", "conditions": "L306A mutant", "Kd": "740 ± 1070 µM"}
{"SMILES": "OC(CCc1ccc(Cl)cc1)Cn1ccnc1 (stereo not drawn)", "target": "7-alpha-hydroxycholest-4-en-3-one 12-alpha-hydroxylase", "assay": "binding", "conditions": "20 min, pH 7.4", "Kd": "183 µM"}
{"SMILES": "CCCCN(Cc1ccc(C(=O)NO)cc1)C(=O)Nc1ccccc1", "target": "ALDH2", "assay": "inhibitor, competition pulldown", "system": "SW620 and MV4-11 lysate", "conditions": "1 h", "Kd": "> 30.2 µM"}
{"SMILES": "CCCN1CCN(c2ccc(-c3cncc(Cl)c3N3CCC4(CCNC4=O)CC3)cc2)CC1", "target": "MED13L human", "assay": "SILAC competition", "system": "LS174T-L5 lysate", "Kd": "0.041 µM"}
{"SMILES": "O=P(O)(O)O[C@H]1[C@H](OP(=O)(O)O)[C@@H](OP(=O)(O)O)[C@H](OP(=O)(O)O)[C@@H](OP(=O)(O)O)[C@H]1OP(=O)(O)O", "target": "Beta-arrestin-2 (ARRB2, Bos taurus, UniProt P32120, K108Q/K11A/K12A/K161Q/K295Q/R8Q)", "assay": "binding, microscale thermophoresis", "Kd": "0.02 µM"}
{"SMILES": "CN(C)Cc1c(C(=O)NCCOc2ccc(C(=O)NO)cc2)oc2ccccc12", "target": "ALDH2", "assay": "inhibitor, competition pulldown", "system": "SW620 and MV4-11 lysate", "conditions": "1 h", "Kd": "> 30.2 µM"}
{"SMILES": "Nc1ncnc2c1ncn2[C@@H]1O[C@H](CO[P@](=O)(O)O[P@](=O)(O)O[P@@](=O)(O)S)[C@@H](O)[C@H]1O", "target": "GUK1 (Homo sapiens, UniProt Q16774)", "assay": "binding, ITC", "conditions": "added: ADP", "Kd": "42 ± 2 µM"}
{"SMILES": "Nc1ccn([C@@H]2O[C@H](COP(=O)(O)OP(=O)(O)O)[C@@H](O)[C@H]2O)c(=O)n1", "target": "RNASE1 (Bos taurus, UniProt P61823)", "assay": "surface sampling native MS", "Kd": "3.8 ± 0.2 µM"}
{"SMILES": "O=C(O)CC(O)(CC(=O)O)C(=O)O", "target": "uncharacterized protein (Pelagibacter ubique, UniProt Q4FLC8)", "assay": "binding, competition isothermal titration calorimetry", "system": "Candidatus Pelagibacter ubique", "conditions": "added: cis-aconitate 1 mM competitor, MgSO4 53 mM", "Kd": "0.000693 µM and 0.000698 µM"}
{"SMILES": "Cc1cc2nc3c(=O)[nH]c(=O)nc-3n(C[C@H](O)[C@H](O)[C@H](O)COP(=O)(O)OP(=O)(O)OC[C@H]3O[C@@H](n4cnc5c(N)ncnc54)[C@H](O)[C@@H]3O)c2cc1C", "target": "Fibulin-2 (FBLN2, Homo sapiens, UniProt P98095)", "assay": "binding, MS pulldown competition", "system": "SW-620 cell lysate", "Kd": "66.1 µM"}
{"SMILES": "CC[C@H](C)[C@H](NC(=O)[C@H](CC(C)C)NC(=O)[C@H](Cc1ccc(OP(=O)(O)O)cc1)NC(=O)[C@H](CCC(=O)O)NC(=O)[C@H](CC(=O)O)NC(=O)[C@H](C)NC(=O)[C@H](CC(=O)O)NC(=O)[C@@H](NC(=O)[C@@H](NC(=O)[C@H](CC(=O)O)NC(=O)[C@H](CC(=O)O)NC(=O)[C@H](CCSC)NC(=O)c1ccc2c(c1)C(=O)OC21c2ccc(N(C)C)cc2Oc2cc(N(C)C)ccc21)C(C)C)C(C)C)C(=O)N1CCC[C@H]1C(=O)N[C@@H](CCC(N)=O)C(=O)N[C@@H](CCC(N)=O)C(=O)NCC(=O)N[C@@H](Cc1ccccc1)C(=O)N[C@@H](CC(=O)O)C(=O)O", "target": "Tyrosine-protein phosphatase non-receptor type 11, SH2 domains (PTPN11, Homo sapiens, UniProt Q06124)", "assay": "binding", "Kd": "0.379 µM"}
{"SMILES": "C/C=C1\\NC(=O)[C@H]2CSSCC/C=C/[C@H](CC(=O)N[C@H](C(C)C)C(=O)N2)OC(=O)[C@H](C(C)C)NC1=O", "target": "ALDH2", "assay": "inhibitor, competition pulldown", "system": "SW620 and MV4-11 lysate", "conditions": "1 h", "Kd": "> 30.2 µM"}
{"SMILES": "C=CC(=O)N1CCN(c2nc(OC[C@@H]3CCCN3C)nc3c(F)c(-c4nc(N)cc(C)c4C(F)(F)F)c(Cl)cc23)[C@@H](C)C1", "target": "GTPase KRas, GDP-bound (KRAS, Homo sapiens, UniProt P01116, G13D)", "assay": "SPR", "Kd": "0.567 ± 0.036 µM"}
{"SMILES": "O=C(/C=C/c1ccc(O)c(O)c1)OC[C@@H]1O[C@]2(C(=O)O)C[C@H](OC(=O)/C=C/c3ccc(O)c(O)c3)[C@@H](O)[C@H]1O2", "target": "2,4-dienoyl-CoA reductase, mitochondrial (Homo sapiens, UniProt Q16698)", "assay": "binding, surface plasmon resonance", "Kd": "40.5 µM"}
{"SMILES": "Cn1cc(CNCC2CCN(c3ncc(C(=O)NO)cn3)CC2)c2ccccc21", "target": "ALDH2", "assay": "inhibitor, competition pulldown", "system": "SW620 and MV4-11 lysate", "conditions": "1 h", "Kd": "> 30.2 µM"}
{"SMILES": "[N-]=[N+]=NCC1OC(OC2C(N)CC(N)C(OC3OC(CN)C(O)C(O)C3O)C2O)C(O)C(N)C1O (stereo not drawn)", "target": "RNA, 5′UU/3′UU internal loops", "assay": "RNA binding, fluorescence titration", "conditions": "1 h, room temperature, 12 copies of 2×2 loop", "Kd": "0.3 ± 0.052 µM"}
{"SMILES": "CC(=O)Nc1ccc(C(=O)Nc2ccccc2N)cc1", "target": "ALDH2", "assay": "inhibitor, competition pulldown", "system": "SW620 and MV4-11 lysate", "conditions": "1 h", "Kd": "> 30.2 µM"}
{"SMILES": "O=C(Nc1ccccc1Oc1nc2ccccc2n2cnnc12)c1cccs1", "target": "Catenin beta-1, residues 141-305 (CTNNB1, Homo sapiens, UniProt P35222)", "assay": "binding, isothermal titration calorimetry", "conditions": "25 °C", "Kd": "2.22 µM"}
{"SMILES": "Fc1ccc(NC(=S)NCCCn2ccnc2)c(F)c1", "target": "7-alpha-hydroxycholest-4-en-3-one 12-alpha-hydroxylase", "assay": "binding", "conditions": "20 min, pH 7.4", "Kd": "216 µM"}
{"SMILES": "CCCCc1nc2cc(/C=C/C(=O)NO)ccc2n1CCN(CC)CC", "target": "ALDH2", "assay": "inhibitor, competition pulldown", "system": "SW620 and MV4-11 lysate", "conditions": "1 h", "Kd": "> 30.2 µM"}
{"SMILES": "Cc1ccc(S(=O)(=O)OC[C@H]2CO[C@](Cn3ccnc3)(c3ccc(Cl)cc3Cl)O2)cc1", "target": "7-alpha-hydroxycholest-4-en-3-one 12-alpha-hydroxylase", "assay": "binding", "conditions": "20 min, pH 7.4", "Kd": "0.777 µM"}
{"SMILES": "Cc1ccnc([18F])c1-c1cccc(N2C[C@H](N3CCN(C(=O)c4nccs4)CC3)CC2=O)c1", "target": "Monoglyceride lipase (Macaca mulatta, UniProt H9ESL3)", "assay": "PET Scatchard analysis", "system": "rhesus monkey, occipital cortex", "Kd": "0.00329 µM"}
{"SMILES": "CC(C)c1c(-c2cccc3[nH]ccc23)[nH]c(C(=O)O)c1-c1c(Cl)ccc2[nH]ccc12", "target": "BMI1/RNF2 (Homo sapiens, UniProt P35226+Q99496)", "assay": "isothermal titration calorimetry", "Kd": "1.7 to 2.8 µM"}
{"SMILES": "Nc1ccccc1NC(=O)c1ccc(CNc2nccc(-c3cccnc3)n2)cc1", "target": "ALDH2", "assay": "inhibitor, competition pulldown", "system": "SW620 and MV4-11 lysate", "conditions": "1 h", "Kd": "> 30.2 µM"}
{"SMILES": "NC(=O)c1ccc[n+]([C@@H]2O[C@H](COP(=O)([O-])OP(=O)(O)OC[C@H]3O[C@@H](n4cnc5c(N)ncnc54)[C@H](O)[C@@H]3O)[C@@H](O)[C@H]2O)c1", "target": "IMPDH2 (Homo sapiens, UniProt P12268)", "assay": "binding to E-IMP complex, pre-steady-state kinetics", "Kd": "80 µM"}
{"SMILES": "O=C(O)/C=C(/CC(=O)O)C(=O)O", "target": "uncharacterized protein (Pelagibacter ubique, UniProt Q4FLC8)", "assay": "binding, isothermal titration calorimetry", "system": "Candidatus Pelagibacter ubique", "conditions": "one-set-of-sites model, added: MgSO4 53 mM", "Kd": "3.13 µM and 3.83 µM"}
{"SMILES": "OC[C@H]1O[C@@](CO)(OC[C@@]2(OC[C@@]3(O[C@H]4O[C@H](CO)[C@@H](O)[C@H](O)[C@H]4O)O[C@H](CO)[C@@H](O)[C@@H]3O)O[C@H](CO)[C@@H](O)[C@@H]2O)[C@@H](O)[C@@H]1O", "target": "Fructooligosaccharide ABC transporter substrate-binding protein FusA (fusA, Streptococcus pneumoniae serotype 4, UniProt A0A0H2URD6)", "assay": "binder", "Kd": "0.3 µM"}
{"SMILES": "Cc1[nH]c2ccccc2c1-c1csc(-c2c[nH]c3ccccc23)n1", "target": "Bromodomain-containing protein 4, phosphorylated (BRD4, Homo sapiens, UniProt O60885)", "assay": "microscale thermophoresis", "Kd": "12.9 µM"}
{"note": "Some of these lines once more:"}
{"SMILES": "C/C=C1\\NC(=O)[C@H]2CSSCC/C=C/[C@H](CC(=O)N[C@H](C(C)C)C(=O)N2)OC(=O)[C@H](C(C)C)NC1=O", "target": "ALDH2", "assay": "inhibitor, competition pulldown", "system": "SW620 and MV4-11 lysate", "conditions": "1 h", "Kd": "> 30.2 µM"}
{"SMILES": "Cc1ccnc([18F])c1-c1cccc(N2C[C@H](N3CCN(C(=O)c4nccs4)CC3)CC2=O)c1", "target": "Monoglyceride lipase (Macaca mulatta, UniProt H9ESL3)", "assay": "PET Scatchard analysis", "system": "rhesus monkey, occipital cortex", "Kd": "0.00329 µM"}
{"SMILES": "CO[C@@H]1O[C@@H](C)[C@@H](O)[C@@H](O)[C@@H]1O", "target": "fleA (Aspergillus fumigatus, UniProt Q4WW81)", "assay": "isothermal titration calorimetry", "Kd": "40.3 µM"}
